Results collected from several papers.
Parts stem from different laboratories: compare values within a part only.

Block 1
Target: Interferon regulatory factor 3, full length, phosphomimetic (IRF3, Homo sapiens, UniProt Q14653, residues 1-427, S386D/S396D/S398D/S402D/T404D/S405D)
Technique: protein-binding microarray
Form: double-stranded DNA, one strand shown
Medium: in vitro
Concentration: 2540 nM top
Setting: 60-bp whole probe
Added: salmon DNA 0.4 mg/ml
Baseline: random background probes
Reading: higher = stronger binding
Shared flanks, not repeated: GCCTAGCAC … GTCTTGATTCGCTTGACGCTGCTG
Residues (chain): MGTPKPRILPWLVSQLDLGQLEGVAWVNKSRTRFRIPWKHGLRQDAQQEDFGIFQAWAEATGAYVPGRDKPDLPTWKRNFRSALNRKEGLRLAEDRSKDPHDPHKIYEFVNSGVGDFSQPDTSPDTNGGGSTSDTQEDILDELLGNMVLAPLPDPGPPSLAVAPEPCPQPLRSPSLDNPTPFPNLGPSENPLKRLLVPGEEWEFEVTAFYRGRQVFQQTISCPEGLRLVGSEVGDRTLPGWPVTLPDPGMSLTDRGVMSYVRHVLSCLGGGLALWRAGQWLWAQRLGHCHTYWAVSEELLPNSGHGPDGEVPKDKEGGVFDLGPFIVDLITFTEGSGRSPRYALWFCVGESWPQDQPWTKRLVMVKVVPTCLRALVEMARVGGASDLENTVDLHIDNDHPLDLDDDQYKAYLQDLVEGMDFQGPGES
Oligonucleotide	fitted relative affinity [z-score]
TTAGTTCTCAGTATCGATTAGTGCTAG	1.51
TACGGTTTCCTTTCCCTGACGTGCTAG	9.76
GACGGTATGGGTATCGGGACGTGCTAG	0.0358
GACGATCTCAGTTTCGAGCCGTGCTAG	1.66
GACTGTTTCCTACTGCTGACGTGCTAG	4.4
TTAGGTTACGGTCTCGGTTAGTGCTAG	1.52
TTAGGTATCGGGTACCGGTTAGTGCTA	1.32

Block 2
Target: Hepatocyte nuclear factor 3-alpha (Foxa1, Mus musculus, UniProt P35582, residues 1-468, full length assumed)
Technique: EMSA with sequencing
Form: double-stranded DNA, one strand shown
Medium: in vitro
Concentration: 10 and 20 nM
Setting: whole designed probe, mean of two concentrations, ends assumed
Baseline: negative control set to 0
Reading: higher = stronger binding
Residues (chain): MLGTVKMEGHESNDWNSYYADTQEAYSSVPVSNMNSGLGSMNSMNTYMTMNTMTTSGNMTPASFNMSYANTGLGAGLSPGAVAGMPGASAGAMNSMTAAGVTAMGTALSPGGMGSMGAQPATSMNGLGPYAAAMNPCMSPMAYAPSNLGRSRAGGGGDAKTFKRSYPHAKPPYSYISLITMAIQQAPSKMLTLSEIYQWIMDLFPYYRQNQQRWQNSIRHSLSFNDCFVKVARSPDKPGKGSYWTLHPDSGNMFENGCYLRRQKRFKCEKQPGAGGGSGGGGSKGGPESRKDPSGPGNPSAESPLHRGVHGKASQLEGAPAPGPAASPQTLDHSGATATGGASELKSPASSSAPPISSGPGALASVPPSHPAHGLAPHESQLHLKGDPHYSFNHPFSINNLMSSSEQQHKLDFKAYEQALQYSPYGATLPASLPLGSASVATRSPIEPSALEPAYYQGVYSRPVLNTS
Oligonucleotide	normalised bound fraction [ratio]
GTGAGCGGTGCCCATTGATGGGGAACTCTGGAAATTTTCTCTTACTTAACAGTCATTTTCTAAATATAATGGAATGTCATCTTTAGTCTATATCCAGGATCCTGGAATCCAAGTAATTCATGTTTACTTATTTTGTAGCTTAGCAGAAAACTGAATCTAGCTTAGTGTTCTGAATAAATAATAATTCTACAACCTAGAGAATTACTTGGCAGCACTATGTTTCACTGGGATCGTGGGGAC	0.379
GTGAGCGGTGCCCATTGATGGGGAACTACTGATATAAAAATAGGCATATAGACCAATGGAACAGAATAGAGAACCCAGAAATAAAACCAAATACTTACAGCCAACAGATTTTTGACAAAGCAATCTAAAACATGAAGTGGGGAAAGGAAACCCTATTGAACAAATAATGGAGGGATGTTTAGCAAGCCACATGTAGAAGAATAAAACTGGAAACTCATCTTTCACTGGGATCGTGGGGAC	0.339
GTGAGCGGTGCCCATTGATGGGGAACAAAAATGCTCATCTCTGAATGGTGGGATTATTGTTTCTATATTCTTCTTATACATGCCTGTATTTTTTTAAACAATGAATGTTTATTACTCTGTGTTTACAAAAAAGGGAGAGTTTAAAGCCCCTTACCCCAAAGTGAGGCAGGAATCAAGTCAGGGGCTTAAAGTGGCGAGCCCTGGGCTCTTTCCTGGGCTTTTCACTGGGATCGTGGGGAC	0.118
GTGAGCGGTGCCCATTGATGGGGAACACTCGTATACTTATGTGAATGTATATATTTATGTGTTGATAAATAAAATGATACACAAAAATTAGAAAATAACATTGAAAGACTGAACATAAAAGTAAACAAGAAGAGATTAATTCTCGAATGCACAGTTTAAAAAGAATCAAAAGTATATCTTCAAGCTCCTTAGAATATAATGAAAATGGGGACTTATAATTTTCACTGGGATCGTGGGGAC	0.491

Block 3
Target: Histone acetyltransferase KAT6A, winged helix 2, GST fusion (KAT6A, Homo sapiens, UniProt Q92794, residues 85-181)
Technique: protein binding microarray
Form: double-stranded DNA, one strand shown
Medium: in vitro
Concentration: not given
Setting: 8-mer, flanks averaged, mean of 2 arrays, mostly near background
Baseline: not given
Reading: higher = stronger binding
Target sequence (chain): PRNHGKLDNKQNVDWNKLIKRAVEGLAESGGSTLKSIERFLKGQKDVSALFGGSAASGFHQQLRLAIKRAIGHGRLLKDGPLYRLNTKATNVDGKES
Oligonucleotide	E-score
CCCGATCG	0.199
GCAATCTA	-0.0677
GCCCTGCA	0.0655
AGATCACC	-0.104
ACTTAACG	-0.252
AGGCTGGC	-0.0825
AACGTCTC	-0.116
AATGAAGC	0.0562

Block 4
Molecule: PhoQ, residues 284 288 289 292 302 303 TASMAF
Technique: Sort-seq
Measured: YFP reporter
Medium: E. coli
Setting: PhoQ-PhoP variant library
Added: 10 µM Mg2+
Baseline: high Mg2+ state
Reading: higher = stronger signaling
target	fold induction
PhoP, residues 12 14 15 18 19 LHTVL (Escherichia coli, UniProt P23836)	11.6
PhoP, residues 12 14 15 18 19 TQAML (Escherichia coli, UniProt P23836)	18
PhoP, residues 12 14 15 18 19 NQCAL (Escherichia coli, UniProt P23836)	12.4

A few entries again (block 2):
Oligonucleotide	normalised bound fraction [ratio]
GTGAGCGGTGCCCATTGATGGGGAACTCTGGAAATTTTCTCTTACTTAACAGTCATTTTCTAAATATAATGGAATGTCATCTTTAGTCTATATCCAGGATCCTGGAATCCAAGTAATTCATGTTTACTTATTTTGTAGCTTAGCAGAAAACTGAATCTAGCTTAGTGTTCTGAATAAATAATAATTCTACAACCTAGAGAATTACTTGGCAGCACTATGTTTCACTGGGATCGTGGGGAC	0.379
GTGAGCGGTGCCCATTGATGGGGAACTACTGATATAAAAATAGGCATATAGACCAATGGAACAGAATAGAGAACCCAGAAATAAAACCAAATACTTACAGCCAACAGATTTTTGACAAAGCAATCTAAAACATGAAGTGGGGAAAGGAAACCCTATTGAACAAATAATGGAGGGATGTTTAGCAAGCCACATGTAGAAGAATAAAACTGGAAACTCATCTTTCACTGGGATCGTGGGGAC	0.339
